# Measured values of several laboratories.
# Parts stem from different laboratories: compare values within a part only. Values joined by “and” are separate records of one study, mostly repeats; a detail may differ.

# Set 1
# Organism: Arabidopsis thaliana
# Strain: Col-0
# Concentration: 25 µg/mL
# Notes: seed germination, single repetition
SMILES,hypocotyl length
Cc1ccc2c(c1)OC(O)(C(=O)O)C(=O)N2Cc1ccccc1 (stereo not shown),1.8 cm and 1.82 cm and 1.84 cm and 1.83 cm
CC(C)(C)c1ccc(Oc2ccc3c(c2)OC(O)(C(=O)O)C(=O)N3Cc2ccccc2)cc1 (stereo not shown),1.71 cm and 1.75 cm and 1.78 cm and 1.68 cm and 1.74 cm
O=C(O)C1(O)Oc2cc(Br)ccc2N(Cc2ccccc2)C1=O (stereo not shown),1.67 cm and 1.65 cm and 1.79 cm and 1.71 cm and 1.68 cm
O=C(O)C1(O)Oc2ccccc2N(Cc2ccccc2)C1=O (stereo not shown),1.54 cm and 1.5 cm and 1.45 cm and 1.52 cm and 1.51 cm

# Other studies, line by line
Compound,target or system,assay,system,conditions,how to read,measurement,value
Cc1ccc(O)c(C)c1-c1cnc2[nH]c(-c3cnc(N4CCC(CN5CCN(c6ccc(NC7CCC(=O)NC7=O)cc6F)CC5)CC4)nc3)cc2c1C#N (stereo not shown),,,"female CD-1 mouse, plasma","oral, 10 mg/kg",,Cmax,405 ng/mL
Cc1nc(C)c(C=[N+]([O-])C(C)(C)C)nc1C,PC-12,Seahorse,,"100 µM, 52.67 min, pretreatment 0.8778 h, added: MPP+",,oxygen consumption rate,798 pmol/min and 656 pmol/min and 735 pmol/min and 752 pmol/min and 684 pmol/min
Cc1ccc(O)c(C)c1-c1cnc2[nH]c(-c3cnc(N4CCC(CN5CCN(c6ccc7c(c6)C(=O)N(C6CCC(=O)NC6=O)C7=O)CC5)CC4)nc3)cc2c1C#N (stereo not shown),HCC1569,"CDK1 Thr14 phosphorylation, in-cell western",,111.11 nM,lower = stronger inhibition,phospho-CDK1 (Thr14) level,73.6 a.u. and 72.5 a.u.
COCC1CC2C(CCC3(C)C(O)CCC23)c2ccc(O)cc21 (stereo not shown),PANC-1,"DNA microarray, refers to: KIF20A",,"concentration not given, lower dose arm",baseline: untreated cells,log2 fold change,-0.58 and -0.559 and -0.6 and -0.638 and -0.586
Cc1ccc(O)c(C)c1-c1cnc2[nH]c(-c3cnc(N4CCC(CN5CCN(c6ccc7c(c6F)CN(C6CCC(=O)NC6=O)C7=O)CC5)CC4)nc3)cc2c1C#N (stereo not shown),,,"CD-1 mouse, female, plasma","oral, 20 mg/kg",,oral bioavailability,39.3%
Cc1ncc(-c2cc3c(C(N)=O)c(-c4c(C)ccc(O)c4C)cnc3[nH]2)cn1,HCC1569,"in-cell western, refers to: CDK1 phospho-Thr14",,10000 nM,,pCDK1 (Thr14) level,31.1 RLU and 31.3 RLU

# Some of these lines once more (set 1):
SMILES,hypocotyl length
Cc1ccc2c(c1)OC(O)(C(=O)O)C(=O)N2Cc1ccccc1 (stereo not shown),1.8 cm and 1.82 cm and 1.84 cm and 1.83 cm
